Measurements from different studies.
Protocols differ between the studies behind these lines. Numbers after ± are the reported error.
ABO G235S/G268A/L266M/R176G: Histo-blood group ABO system transferase (ABO, Homo sapiens, UniProt P16442, G235S/G268A/L266M/R176G)
ADORA1: Adenosine receptor A1 (ADORA1, Homo sapiens, UniProt P30542)
PRXC1A: PRXC1A (Armoracia rusticana, UniProt P00433)
SLC10A2: Ileal sodium/bile acid cotransporter (SLC10A2, Homo sapiens, UniProt Q12908)
T1: DNA aptamer; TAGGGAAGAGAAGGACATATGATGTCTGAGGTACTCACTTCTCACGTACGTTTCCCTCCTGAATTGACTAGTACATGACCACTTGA

Compound	target	assay	system	conditions	how to read	measurement	value
Cc1cc(C#CC2(O)CCCCC2)cc2c1cc(C(=O)O)n2-c1cccc(Cl)c1	Microphthalmia-associated transcription factor, residues 1-296 (Homo sapiens, UniProt O75030)	binding, isothermal titration calorimetry	–	25 °C	–	ΔG	-8.8 ± 0.335 kcal/mol
Cc1ccc(C(=O)Nc2ccc(CP(=O)(O)O)cc2CP(=O)(O)O)cc1NC(=O)c1cccc(NC(=O)Nc2cccc(C(=O)Nc3cc(C(=O)Nc4ccc(CP(=O)(O)O)cc4CP(=O)(O)O)ccc3C)c2)c1	F11 (Homo sapiens, UniProt P03951)	enzyme activity, inhibitor	–	25 µM, with: S-2366 substrate	–	Vmax	79.3 ± 2.8 mAU/min
CCC(=C(c1ccc(O)cc1)c1ccc(OCCN(C)CCOCCOCCOCCOCCOCCOCCOCCOCCOCCOCCOCCN(C)CCOc2ccc(C(=C(CC)c3ccccc3)c3ccc(O)cc3)cc2)cc1)c1ccccc1 (mixture of isomers)	ESR2 (Homo sapiens, UniProt Q92731)	radioligand competition binding	–	concentration not given, Z-E/E isomer form, with: [3H]estradiol tracer	relative to: estradiol	relative binding affinity	7.6 ± 2.2%
C/C(=N\OCCN(C)Cc1ccccc1)c1ccc(C(F)(F)F)cc1	rat sigma-1 receptor	binding	–	with: phenytoin 250 µM	relative to: without over with phenytoin	Ki ratio	5.9
O=C(O[C@@H]1Cc2c(O)cc(O)cc2O[C@@H]1c1cc(O)c(O)c(O)c1)c1cc(O)c(O)c(O)c1	PNLIP (Sus scrofa, UniProt P00591)	fluorescence titration	–	concentration not given, pH 8.0	–	number of binding sites	0.984
C=CCCCCCCO[C@@H]1O[C@H](CO)[C@H](O)[C@H](O[C@@H]2O[C@H](CO)[C@H](O)[C@H](O)[C@H]2O[C@@H]2O[C@@H](C)[C@@H](O)[C@@H](O)[C@@H]2O)[C@H]1O	ABO G235S/G268A/L266M/R176G	methyl-TROSY NMR titration lineshape analysis	–	apo enzyme	–	kon	2e+06 M⁻¹ s⁻¹
CCNC(=O)[C@H]1O[C@@H](n2cnc3c(NCCOCCOCCNC(=O)CCCCCNC(=O)COc4ccc(/C=C/C5=[N+]6C(=Cc7ccc(-c8cccs8)n7[B-]6(F)F)C=C5)cc4)ncnc32)[C@H](O)[C@@H]1O	ADORA1	CRE reporter gene	CHO-A1	Gi response, with: forskolin	–	log Kd minus log IC50	0.97
CCNC(=O)[C@H]1O[C@@H](n2cnc3c(Nc4ccc(I)cc4)ncnc32)[C@H](O)[C@@H]1O	ADORA3 (Homo sapiens, UniProt P0DMS8)	kinetic radioligand binding	–	no GTP, with: [3H]PSB-11	–	residence time	117 ± 12 min
CC(=O)[C@H]1CC[C@H]2[C@@H]3CCC4=CC(=NOCC(=O)O)CC[C@]4(C)[C@H]3CC[C@]12C	T1, DNA aptamer	APAA	–	NaCl 100 mM	–	Kd	1.55 nM
O=C(NC1CC=C(c2cc3c(Nc4cc5ncsc5cc4F)ncnc3s2)CC1)NC1CCCC1 (racemic)	RIPK1 (Homo sapiens, UniProt Q13546)	enzyme activity	–	1 µM	relative to: untreated	remaining activity	94 ± 1%
CCCCCC(C)NCC(=O)O (centres unmarked)	Albumin (ALB, Homo sapiens, UniProt P02768)	circular dichroism	–	0.12 mM	–	random coil content	33.1%
Cc1cc(=O)oc2cc(NC(=O)[C@H](Cc3ccc(O)cc3)NC(=O)[C@H](CCC(N)=O)NC(=O)[C@H](CCC(N)=O)NC(=O)[C@H](CO)NC(=O)[C@H](CCCCN)NC(=O)[C@H](CCCNC(=N)N)NC(=O)[C@H](CO)NC(=O)N3CCOCC3)ccc12	Prostate-specific antigen (Homo sapiens, UniProt P07288)	substrate	–	–	–	Km	140 µM
CNS(=O)(=O)Nc1nccc(Cc2c(C)c3ccc(Oc4ncccc4F)cc3oc2=O)c1F	MAPK10 (Homo sapiens, UniProt P53779)	cell-free assay, competition with immobilised ligand	–	1 µM	–	remaining binding	17%
CC(=O)Nc1ccc(-c2c(C#N)c(N)nc(SCc3ccccc3)c2C#N)cc1	ADORA1	cAMP, agonist	–	–	–	Emax	141%
N=C(N)NCCC[C@H](NC(=O)[C@H](Cc1ccccc1)NC(=O)[C@@H](N)CO)C(=O)N[C@@H](CC(N)=O)C(N)=O	Neuropeptide S receptor (Mus musculus, UniProt Q8BZP8)	calcium mobilization, agonist	HEK293T	unit not given	relative to: maximal assay window	maximal response	0.86
COc1cc(C2CC(=O)Nc3nc(N)[nH]c(=O)c32)ccc1O (centres unmarked)	uncharacterized protein (Leishmania donovani, UniProt A0A3Q8IA09)	competitive ITC	–	concentration not given, with: aspartate 60 µM	–	binding stoichiometry	3.5 ± 1.2
CN(C)CCCCOc1ccc2cc(CN)ccc2c1	Primary amine oxidase, liver isozyme (Bos taurus, UniProt Q29437)	substrate, fluorescence	–	pH 7.2, 30 °C	–	kcat	0.05 ± 0.001 s⁻¹
O=C1C=CC2(c3coc4cc(O)ccc4c3=O)c3cc(-c4coc5cc(O)ccc5c4=O)ccc3OC2C1 (centres unmarked)	PRXC1A	oxidation, substrate	–	–	–	Vmax	56.5 ± 2.5 µmol/min/mg
O=C(Nc1nc2ccccc2s1)C1CCN(S(=O)(=O)c2ccc(F)c(Cl)c2)CC1	N-acyl-phosphatidylethanolamine-hydrolyzing phospholipase D (Homo sapiens, UniProt Q6IQ20)	enzyme activity	–	concentration not given, with: PED-A1 substrate	–	activity	no effect
C[C@H](CCC(=O)N[C@@H](CCC(=O)Nc1cncc(Br)c1)C(=O)O)[C@H]1CC[C@H]2[C@@H]3[C@H](O)C[C@@H]4C[C@H](O)CC[C@]4(C)[C@H]3CC[C@]12C	SLC10A2	transport efficiency, substrate, LC-MS/MS	ASBT-MDCK	–	–	normalized Jmax/Kt	0.0203 µM⁻¹
CCCCCCOc1ccc(C(=O)OCC[N+]2(C)CC=CCC2)cc1 (centres unmarked)	CHRM1 (Homo sapiens, UniProt P11229)	–	–	with: [3H]-NMS	relative to: xanomeline over cpd	dissociation half-time ratio	~6

Compound	target	assay	system	conditions	how to read	measurement	value
CNCC=C(C)C=CC=CC=CC1=C(C)CCCC1(C)C	Rhodopsin (RHO, Homo sapiens, UniProt P08100, T289P)	immunoblot	661W rod opsin T289P	2.5 µM	relative to: mature over immature	mature over immature ratio	~2
CC(CCC(=O)NC(CCC(=O)Nc1ccccc1O)C(=O)O)C1CCC2C3C(O)CC4CC(O)CCC4(C)C3CCC12C (centres unmarked)	SLC10A2	transport efficiency, substrate, LC-MS/MS	ASBT-MDCK	–	–	normalized Jmax/Kt	0.262 µM⁻¹
O=C1c2ccc(O)cc2OC2c3cc(-c4coc5cc(O)ccc5c4=O)ccc3OC12c1ccc(O)cc1 (centres unmarked)	PRXC1A	substrate, Hill kinetic model	–	product formation, with: hydrogen peroxide NG	–	Hill coefficient	0.827
NC(=O)C1CCNC(=O)C(CCCNC(=O)c2cnccn2)NC(=O)C(Cc2ccco2)NC(=O)C(CC=Cc2ccccc2)NC(=O)C=CC(=O)N1 (centres unmarked)	MAPKAPK2 (Homo sapiens, UniProt P49137)	DNA-templated library selection	–	one selection round	–	enrichment factor	1.8
O=C(Nc1ccc(I)cc1)N1CCC(n2c(=O)[nH]c3c(Br)cccc32)CC1	OGG1 (Homo sapiens, UniProt O15527)	differential scanning fluorimetry	–	–	higher = stabilisation	thermal shift	4.1 K
C=C1C[C@]2(C(=O)OC)C=C(C(=O)Nc3cccc(C(=O)Nc4ccc(Nc5nccc(-c6cccnc6)n5)c(C)c4)c3)C(=O)[C@H]1C2	MAPK8 (Homo sapiens, UniProt P45983, C116S)	surface plasmon resonance	–	–	–	association rate constant k1	129000 M⁻¹ s⁻¹
CCc1nc2cc3ccccc3cc2cc1C(=O)N1CCC[C@H]1C(=O)N[C@@H](CCC/C=C\CCC[C@H](NC(=O)[C@@H]1CCCN1C(=O)c1cc2cc3ccccc3cc2nc1CC)C(=O)N[C@@H](CCCCN)C(=O)NCCCN)C(=O)N[C@@H](CCCCN)C(=O)NCCCN	(CCUG)10 RNA	SPR	–	–	–	residence time	2.17 min
CC(=O)[C@@H]1CCCN1C(=O)[C@@H]1CCCN1C(=O)[C@H](Cc1ccccc1)N(C)C(=O)[C@H](C(C)C)N(C)C(=O)OC(C)(C)C	BCL2 (Homo sapiens, UniProt P10415)	cellular thermal shift	DU-145	–	highest temperature with stabilization	stabilization temperature limit	≤ 46 °C
[123I]c1ccc2nc(-c3ccc(-n4ccnn4)nc3)cn2c1	Amyloid-beta precursor protein, amyloid-beta (APP, Homo sapiens, UniProt P05067)	SPECT	healthy human controls, subcortical white matter	120 to 210 min	relative to: cerebellum	SUVR	0.8 ± 0.01
CCCCOc1ccc(C(=O)OCC[N+]2(C)CC=CCC2)cc1 (centres unmarked)	CHRM5 (Homo sapiens, UniProt P08912)	antagonist, item: inositol phosphates	CHO	M5, with: carbachol	–	cooperativity factor	0.0009 ± 0.0002
Cc1ccc(C(=O)Nc2ccc(CP(=O)(O)O)cc2CP(=O)(O)O)cc1NC(=O)c1cccc(NC(=O)Nc2cccc(C(=O)Nc3cc(C(=O)Nc4ccc(CP(=O)(O)O)cc4CP(=O)(O)O)ccc3C)c2)c1	Neutrophil elastase (ELANE, Homo sapiens, UniProt P08246)	enzyme activity, inhibitor, chromogenic substrate hydrolysis	–	pH 7.4, 37 °C, 100 mM NaCl, with: substrate S-1384	–	Hill slope	1.4 ± 0.3
O=C1CCC(N2C(=O)c3cccc(Cl)c3C2=O)C(=O)N1 (centres unmarked)	Protein cereblon, in CRL4 complex (CRBN, Homo sapiens, UniProt Q96SW2)	CRL4-CRBN ubiquitination, inhibitor, immunoblotting	–	concentration not given	–	MEIS2 ubiquitination	inhibited
C=CCCCCCCO[C@@H]1O[C@H](CO)[C@@H](O)[C@H](O[C@@H]2O[C@H](CO)[C@H](O)[C@H](O)[C@H]2O[C@@H]2O[C@@H](C)[C@@H](O)[C@@H](O)[C@@H]2O)[C@H]1NC(C)=O	ABO G235S/G268A/L266M/R176G	methyl-TROSY NMR titration lineshape	–	two-state binding model, with: acceptor binding, saturating UDP	–	koff	< 1 s⁻¹
CCC(=C(c1ccc(Cl)cc1)c1ccc(OCCN2CCCC2)cc1)c1ccccc1	Estrogen receptor (ESR1, Homo sapiens, UniProt P03372)	reporter gene, agonist, yeast estrogen screen	–	1 µM	relative to: DMSO	fold activation	1.13 ± 0.03 fold
CC(C)CC(NC(=O)C(NC(=O)NC(C(=O)O)C(C)C)C1CCNC(=N)N1)C(=O)NCCCNC(C(=O)O)C(OC1OC(CN)C(O)C1O)C1OC(n2ccc(=O)[nH]c2=O)C(O)C1O (centres unmarked)	mraY (Aquifex aeolicus, UniProt O66465, K70A)	ITC	–	K70A mutant	–	ΔS	9.8 ± 0.7 cal/mol/K
C=CCn1c(=O)c2ccccc2n2c(SCC(=O)Nc3ccc(NC(C)=O)cc3)nnc12	Muscarinic acetylcholine receptor M2 (Rattus norvegicus, UniProt P10980)	allosteric modulator	–	–	–	log cooperativity factor with NMS	0.56 ± 0.42
O=C([O-])CN(CCN(CC(=O)[O-])Cc1cc(CCC(=O)NCCCCCC(=O)NCCCC[C@H](NC(=O)N[C@@H](CCC(=O)O)C(=O)O)C(=O)O)ccc1O)Cc1cc(CCC(=O)O)ccc1[O-].[68Ga+3]	FOLH1 (Homo sapiens, UniProt Q04609)	PET/CT	human, primary prostate lesion	–	–	SUVmax	~35.3
CNc1ccccc1C(=O)O[C@H]1C[C@H](n2cnc3c(N)ncnc32)O[C@@H]1COP(=O)(O)OP(=O)(O)O	Unconventional myosin-Va (Gallus gallus, UniProt Q02440, D297C/G292C/I296C/S293C/V295G)	stopped-flow FRET	–	concentration not given, temperature dependence, with: 2 mM MgCl2	–	FRET distance change	4.5 Å
COC(=O)C12CC(C(=O)N3CCn4c(nc(C(=O)Nc5cccc(-c6ccc7c(c6)OCCO7)c5C)c4Cl)C3)(C1)C2	Programmed cell death 1 ligand 1, with PD-1 (CD274, Homo sapiens, UniProt Q9NZQ7)	PD-1/PD-L1 binding, inhibitor, TR-FRET	–	5 µM, room temperature	relative to: no inhibitor	remaining binding	6 ± 9%
O=c1[nH]cnc2c(CN3C[C@H](O)[C@@H](O)C3)c[nH]c12	PNP (Homo sapiens, UniProt P00491)	isothermal titration calorimetry	–	concentration not given, pH 7.4, 27 °C, first subunit, with: 50 mM phosphate	–	binding enthalpy	-8.6 ± 1 kcal/mol

For quick reference, copied from above:
Compound	target	assay	system	conditions	how to read	measurement	value
C=CCCCCCCO[C@@H]1O[C@H](CO)[C@@H](O)[C@H](O[C@@H]2O[C@H](CO)[C@H](O)[C@H](O)[C@H]2O[C@@H]2O[C@@H](C)[C@@H](O)[C@@H](O)[C@@H]2O)[C@H]1NC(C)=O	ABO G235S/G268A/L266M/R176G	methyl-TROSY NMR titration lineshape	–	two-state binding model, with: acceptor binding, saturating UDP	–	koff	< 1 s⁻¹
CCC(=C(c1ccc(Cl)cc1)c1ccc(OCCN2CCCC2)cc1)c1ccccc1	Estrogen receptor (ESR1, Homo sapiens, UniProt P03372)	reporter gene, agonist, yeast estrogen screen	–	1 µM	relative to: DMSO	fold activation	1.13 ± 0.03 fold
CC(C)CC(NC(=O)C(NC(=O)NC(C(=O)O)C(C)C)C1CCNC(=N)N1)C(=O)NCCCNC(C(=O)O)C(OC1OC(CN)C(O)C1O)C1OC(n2ccc(=O)[nH]c2=O)C(O)C1O (centres unmarked)	mraY (Aquifex aeolicus, UniProt O66465, K70A)	ITC	–	K70A mutant	–	ΔS	9.8 ± 0.7 cal/mol/K
C=CCn1c(=O)c2ccccc2n2c(SCC(=O)Nc3ccc(NC(C)=O)cc3)nnc12	Muscarinic acetylcholine receptor M2 (Rattus norvegicus, UniProt P10980)	allosteric modulator	–	–	–	log cooperativity factor with NMS	0.56 ± 0.42
O=C([O-])CN(CCN(CC(=O)[O-])Cc1cc(CCC(=O)NCCCCCC(=O)NCCCC[C@H](NC(=O)N[C@@H](CCC(=O)O)C(=O)O)C(=O)O)ccc1O)Cc1cc(CCC(=O)O)ccc1[O-].[68Ga+3]	FOLH1 (Homo sapiens, UniProt Q04609)	PET/CT	human, primary prostate lesion	–	–	SUVmax	~35.3
